Published values pooled from the literature.
Each numbered part is a random draw from the data of one study; scales do not carry over between parts. “And” joins repeats or separate records; there may be more than shown.
UniProt P57058, sequence (whole entry, looked up): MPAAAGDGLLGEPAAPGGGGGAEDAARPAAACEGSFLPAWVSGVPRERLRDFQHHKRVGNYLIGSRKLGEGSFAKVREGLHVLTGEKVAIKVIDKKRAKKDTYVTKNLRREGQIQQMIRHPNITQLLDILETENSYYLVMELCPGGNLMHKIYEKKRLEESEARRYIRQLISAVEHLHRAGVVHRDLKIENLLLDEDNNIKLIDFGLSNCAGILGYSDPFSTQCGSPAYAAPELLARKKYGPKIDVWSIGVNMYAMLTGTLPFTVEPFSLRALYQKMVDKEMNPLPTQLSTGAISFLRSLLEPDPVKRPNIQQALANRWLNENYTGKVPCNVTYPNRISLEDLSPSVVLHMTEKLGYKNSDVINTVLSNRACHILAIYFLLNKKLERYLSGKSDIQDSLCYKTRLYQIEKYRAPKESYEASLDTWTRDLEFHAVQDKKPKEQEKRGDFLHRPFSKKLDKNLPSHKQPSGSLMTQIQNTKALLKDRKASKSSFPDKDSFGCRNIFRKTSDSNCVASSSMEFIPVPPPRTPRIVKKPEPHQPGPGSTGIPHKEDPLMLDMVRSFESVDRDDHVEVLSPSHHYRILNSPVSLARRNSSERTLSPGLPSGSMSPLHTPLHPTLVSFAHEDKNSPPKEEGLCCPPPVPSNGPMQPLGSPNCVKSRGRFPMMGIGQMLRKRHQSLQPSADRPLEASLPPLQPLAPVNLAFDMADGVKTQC
UniProt P35626, sequence (whole entry, looked up): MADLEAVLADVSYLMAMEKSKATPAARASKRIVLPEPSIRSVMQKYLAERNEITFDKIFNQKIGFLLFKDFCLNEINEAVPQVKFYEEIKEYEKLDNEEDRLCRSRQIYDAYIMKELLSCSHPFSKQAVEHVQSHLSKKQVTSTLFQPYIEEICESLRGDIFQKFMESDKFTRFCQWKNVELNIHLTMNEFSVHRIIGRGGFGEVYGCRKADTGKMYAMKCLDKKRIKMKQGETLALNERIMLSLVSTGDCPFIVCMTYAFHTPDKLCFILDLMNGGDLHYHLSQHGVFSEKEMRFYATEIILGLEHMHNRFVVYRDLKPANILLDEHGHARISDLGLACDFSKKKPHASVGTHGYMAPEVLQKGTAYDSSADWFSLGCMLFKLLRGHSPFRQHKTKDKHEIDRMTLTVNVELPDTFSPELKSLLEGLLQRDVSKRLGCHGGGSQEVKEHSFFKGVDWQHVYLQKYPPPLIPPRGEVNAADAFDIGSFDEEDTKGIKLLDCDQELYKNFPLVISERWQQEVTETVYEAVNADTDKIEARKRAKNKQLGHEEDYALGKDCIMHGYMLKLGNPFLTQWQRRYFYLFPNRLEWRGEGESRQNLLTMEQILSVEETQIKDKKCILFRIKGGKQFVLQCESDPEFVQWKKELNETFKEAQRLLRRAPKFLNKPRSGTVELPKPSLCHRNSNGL
UniProt Q9Y3S1, sequence (whole entry, looked up): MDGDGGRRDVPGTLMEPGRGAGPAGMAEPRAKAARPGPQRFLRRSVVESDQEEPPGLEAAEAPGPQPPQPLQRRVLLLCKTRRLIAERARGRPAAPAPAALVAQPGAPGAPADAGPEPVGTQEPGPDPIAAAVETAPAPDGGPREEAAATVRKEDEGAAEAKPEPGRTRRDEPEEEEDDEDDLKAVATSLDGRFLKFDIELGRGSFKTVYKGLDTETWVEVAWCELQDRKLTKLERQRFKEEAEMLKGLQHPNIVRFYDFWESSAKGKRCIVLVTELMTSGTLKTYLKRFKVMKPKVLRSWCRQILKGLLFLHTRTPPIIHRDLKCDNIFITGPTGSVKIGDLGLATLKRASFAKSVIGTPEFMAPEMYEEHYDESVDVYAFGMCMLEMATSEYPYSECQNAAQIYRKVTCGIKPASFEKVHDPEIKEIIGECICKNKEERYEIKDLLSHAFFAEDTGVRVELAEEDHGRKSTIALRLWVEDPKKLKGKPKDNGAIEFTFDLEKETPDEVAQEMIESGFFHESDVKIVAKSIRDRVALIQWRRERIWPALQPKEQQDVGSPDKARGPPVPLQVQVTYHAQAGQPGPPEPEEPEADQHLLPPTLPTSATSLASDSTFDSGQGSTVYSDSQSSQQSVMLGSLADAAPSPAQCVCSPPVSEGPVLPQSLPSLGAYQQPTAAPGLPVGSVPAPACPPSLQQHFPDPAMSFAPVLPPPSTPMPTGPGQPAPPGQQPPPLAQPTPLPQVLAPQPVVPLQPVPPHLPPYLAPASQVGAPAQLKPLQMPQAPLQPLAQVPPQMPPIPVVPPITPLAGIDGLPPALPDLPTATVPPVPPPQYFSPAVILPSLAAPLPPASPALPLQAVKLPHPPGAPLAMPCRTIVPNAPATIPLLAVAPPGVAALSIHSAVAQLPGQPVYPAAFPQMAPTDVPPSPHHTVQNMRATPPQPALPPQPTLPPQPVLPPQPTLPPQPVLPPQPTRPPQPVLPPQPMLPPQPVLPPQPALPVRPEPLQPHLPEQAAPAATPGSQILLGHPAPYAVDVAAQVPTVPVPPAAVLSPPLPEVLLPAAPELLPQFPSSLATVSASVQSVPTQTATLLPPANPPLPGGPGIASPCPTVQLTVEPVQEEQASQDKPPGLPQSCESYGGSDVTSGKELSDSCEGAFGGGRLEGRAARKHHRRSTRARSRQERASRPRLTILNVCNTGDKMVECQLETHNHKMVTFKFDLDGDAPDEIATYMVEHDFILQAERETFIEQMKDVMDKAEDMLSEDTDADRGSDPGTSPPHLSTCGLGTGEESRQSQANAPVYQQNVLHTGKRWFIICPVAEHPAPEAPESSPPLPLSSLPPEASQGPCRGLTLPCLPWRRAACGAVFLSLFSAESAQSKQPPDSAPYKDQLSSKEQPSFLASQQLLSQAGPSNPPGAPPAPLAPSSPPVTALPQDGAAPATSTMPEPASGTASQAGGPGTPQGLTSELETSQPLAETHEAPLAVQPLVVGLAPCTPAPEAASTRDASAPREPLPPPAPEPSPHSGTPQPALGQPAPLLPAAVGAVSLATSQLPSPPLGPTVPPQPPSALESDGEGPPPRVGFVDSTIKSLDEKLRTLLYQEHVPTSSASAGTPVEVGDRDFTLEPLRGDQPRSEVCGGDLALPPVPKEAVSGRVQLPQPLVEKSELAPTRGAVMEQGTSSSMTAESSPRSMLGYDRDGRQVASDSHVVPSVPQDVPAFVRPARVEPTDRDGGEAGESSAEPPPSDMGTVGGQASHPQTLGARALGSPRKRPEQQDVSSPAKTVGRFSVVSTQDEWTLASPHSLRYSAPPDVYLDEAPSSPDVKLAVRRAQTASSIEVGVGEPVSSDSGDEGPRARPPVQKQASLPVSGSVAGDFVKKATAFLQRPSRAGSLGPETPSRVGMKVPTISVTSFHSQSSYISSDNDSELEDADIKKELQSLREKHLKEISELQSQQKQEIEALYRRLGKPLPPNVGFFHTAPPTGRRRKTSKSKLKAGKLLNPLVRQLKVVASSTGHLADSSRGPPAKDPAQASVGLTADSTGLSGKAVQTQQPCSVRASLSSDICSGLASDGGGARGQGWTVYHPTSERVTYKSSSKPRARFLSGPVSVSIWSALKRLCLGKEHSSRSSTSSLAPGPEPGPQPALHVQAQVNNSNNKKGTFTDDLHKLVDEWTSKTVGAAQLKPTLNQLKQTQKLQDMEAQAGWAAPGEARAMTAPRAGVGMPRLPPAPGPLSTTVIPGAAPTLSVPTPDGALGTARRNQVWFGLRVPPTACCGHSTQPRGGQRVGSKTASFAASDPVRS
UniProt P49336, sequence (whole entry, looked up): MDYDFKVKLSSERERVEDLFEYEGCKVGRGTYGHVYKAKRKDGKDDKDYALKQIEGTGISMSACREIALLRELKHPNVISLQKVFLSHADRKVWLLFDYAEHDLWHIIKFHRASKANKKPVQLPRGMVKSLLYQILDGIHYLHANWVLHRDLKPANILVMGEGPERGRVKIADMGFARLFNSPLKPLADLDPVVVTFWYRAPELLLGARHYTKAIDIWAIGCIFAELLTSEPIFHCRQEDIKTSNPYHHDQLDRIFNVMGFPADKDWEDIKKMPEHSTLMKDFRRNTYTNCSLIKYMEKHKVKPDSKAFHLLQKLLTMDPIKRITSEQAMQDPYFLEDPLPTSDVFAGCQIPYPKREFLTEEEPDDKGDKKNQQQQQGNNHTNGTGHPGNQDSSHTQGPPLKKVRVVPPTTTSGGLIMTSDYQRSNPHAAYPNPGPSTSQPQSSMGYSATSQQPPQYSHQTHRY
UniProt P04629, sequence (whole entry, looked up): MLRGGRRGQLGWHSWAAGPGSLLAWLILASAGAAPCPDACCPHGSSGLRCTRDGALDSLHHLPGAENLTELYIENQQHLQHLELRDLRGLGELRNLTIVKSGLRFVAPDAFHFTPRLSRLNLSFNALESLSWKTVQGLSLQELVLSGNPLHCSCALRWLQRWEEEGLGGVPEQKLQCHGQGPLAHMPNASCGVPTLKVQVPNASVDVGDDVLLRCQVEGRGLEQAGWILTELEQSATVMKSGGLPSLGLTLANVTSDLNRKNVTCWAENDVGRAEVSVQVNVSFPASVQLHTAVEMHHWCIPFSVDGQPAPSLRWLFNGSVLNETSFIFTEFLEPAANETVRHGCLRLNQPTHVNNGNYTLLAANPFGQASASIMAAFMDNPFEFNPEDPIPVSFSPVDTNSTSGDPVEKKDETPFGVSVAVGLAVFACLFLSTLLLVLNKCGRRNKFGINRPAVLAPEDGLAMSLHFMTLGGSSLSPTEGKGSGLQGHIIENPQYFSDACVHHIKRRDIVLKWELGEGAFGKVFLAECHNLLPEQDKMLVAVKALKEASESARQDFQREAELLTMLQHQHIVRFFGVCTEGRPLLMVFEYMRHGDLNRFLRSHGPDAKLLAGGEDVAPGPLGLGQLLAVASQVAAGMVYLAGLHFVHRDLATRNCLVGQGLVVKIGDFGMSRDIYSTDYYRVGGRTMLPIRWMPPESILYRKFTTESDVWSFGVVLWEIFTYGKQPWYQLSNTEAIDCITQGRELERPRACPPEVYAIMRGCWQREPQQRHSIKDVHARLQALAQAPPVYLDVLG

Series 1 — cell line: UACC-903 melanoma cells
Compound	IC50 [µM]
CC(C)c1ccc2c(c1)CC[C@H]1[C@](C)(CN)CCC[C@]21C	2.1
OCCOCCN1CCN(C(c2ccccc2)c2ccc(Cl)cc2)CC1 (centres unmarked)	44.8
Clc1ccccc1CNCC1CCC(CNCc2ccccc2Cl)CC1 (centres unmarked)	14.8

Series 2 — cell line: HaCaT; concentration: 100 µM; time: 36 h
Structure (SMILES)	viability
CCOC(=O)N[C@@H]1CC[C@@H]2[C@@H](C1)C[C@H]1C(=O)O[C@H](C)[C@H]1[C@H]2/C=C/c1ccc(-c2cccc(F)c2)cn1	115%
CCN(CC)C(=S)SSC(=S)N(CC)CC	5.89%
OCCN1CCN(CC/C=C2/c3ccccc3Sc3ccc(C(F)(F)F)cc32)CC1	6.36%
CC(=O)NCCCS(=O)(=O)O	82.2%

Series 3 — read-out: cell-free assay; technique: competition with immobilised ligand; concentration: 1 µM
SMILES: C[C@@H]1CN(c2cc(-c3nn(C)c4ccc(OC5(C)CC5)cc34)ncn2)C[C@H](C)O1
target	remaining binding
MAST1 (Homo sapiens, UniProt Q9Y2H9)	100%
RET (Homo sapiens, UniProt P07949)	96%
PAK4 (Homo sapiens, UniProt O96013)	93%
ROS1 (Homo sapiens, UniProt P08922)	100%
MAPK13 (Homo sapiens, UniProt O15264)	100%
PIK3CA (Homo sapiens, UniProt P42336, C420R)	100%
PRKD2 (Homo sapiens, UniProt Q9BZL6)	90%
PRKD1 (Homo sapiens, UniProt Q15139)	82%
BTK (Homo sapiens, UniProt Q06187)	80%
AKT3 (Homo sapiens, UniProt Q9Y243)	100%
WNK2 (Homo sapiens, UniProt Q9Y3S1)	63%
GRK3 (Homo sapiens, UniProt P35626)	69%
CDK8 (Homo sapiens, UniProt P49336)	100%
NTRK1 (Homo sapiens, UniProt P04629)	76%
MAPK10 (Homo sapiens, UniProt P53779)	71%
HUNK (Homo sapiens, UniProt P57058)	100%

Series 4 — host: human; sample: microsomes or S9; concentration: 2 µM; time: 0.5 h
SMILES	remaining compound
CC(=O)N1CCOc2cc(S(=O)(=O)N3CSC[C@@H]3C(=O)NCc3csc(C)n3)c(C)cc21	2.29%
O=C(Nc1ccccc1Cl)NC1(C(=O)N2CCC(O)CC2)CCCCC1	> 99%
Cc1ccccc1Cc1c(C)nc2c(C(=O)N3CCc4c(c(-c5nncn5C)nn4C)C3)cnn2c1C	32%
COCc1nc(CCNS(=O)(=O)c2cccc(OC)c2)no1	0%
c1ccc2c(c1)cnn2CCCNc1ncnc2c1CCNCC2	94%

Mixed results
Structure (SMILES)	tested on	assay	system	conditions	scale	quantity	value
CC[C@@H](CO)NCCN[C@@H](CC)CO	mouse MPNST tumor cells	high-content nuclear imaging, refers to: cell number	–	10 µM, 12 h, mean of 2 replicates	relative to: plate mean, higher = more cells	nuclei count	0.399 z-score and 1.61 z-score
CC(C)n1cnc(-c2ccc(F)cc2)c1-c1ncc(C(=O)Nc2ccc(N3CCN(C)CC3)cc2)[nH]1	–	phase 2a trial	idiopathic pulmonary fibrosis patients	60 mg once daily, adverse event grade 5	–	patients with anaemia	0%
O=C1CCC(N2Cc3cc(C4CCN(Cc5ccccc5)CC4)ccc3C2=O)C(=O)N1 (centres unmarked)	–	–	male ICR mice, plasma	intravenous, 1.0 mg/kg	–	clearance	3080 mL/h/kg and 2310 mL/h/kg
O=C(O)c1ccc2c(c1)C(=O)N(c1cccc(Oc3ccc([N+](=O)[O-])cc3)c1)C2=O	mouse MPNST tumor cells	high-content nuclear imaging, refers to: cell number	–	10 µM, 12 h, mean of 2 replicates	relative to: plate mean, higher = more cells	nuclei count	1.23 z-score
